Measurements from different studies.
Every numbered part comes from another study and shows a few of its results, in no order. Changes are numbered by the printed parent chain.

Set 1 — technique: universal PBM; form: double-stranded DNA, one strand shown; medium: in vitro; tested at: 600 nM; direction: higher = stronger binding
Target: Sal-like protein 4, full length isoform A (SALL4, Homo sapiens, UniProt Q9UJQ4, residues 1-1053)
UniProt Q9UJQ4, sequence (whole entry, looked up): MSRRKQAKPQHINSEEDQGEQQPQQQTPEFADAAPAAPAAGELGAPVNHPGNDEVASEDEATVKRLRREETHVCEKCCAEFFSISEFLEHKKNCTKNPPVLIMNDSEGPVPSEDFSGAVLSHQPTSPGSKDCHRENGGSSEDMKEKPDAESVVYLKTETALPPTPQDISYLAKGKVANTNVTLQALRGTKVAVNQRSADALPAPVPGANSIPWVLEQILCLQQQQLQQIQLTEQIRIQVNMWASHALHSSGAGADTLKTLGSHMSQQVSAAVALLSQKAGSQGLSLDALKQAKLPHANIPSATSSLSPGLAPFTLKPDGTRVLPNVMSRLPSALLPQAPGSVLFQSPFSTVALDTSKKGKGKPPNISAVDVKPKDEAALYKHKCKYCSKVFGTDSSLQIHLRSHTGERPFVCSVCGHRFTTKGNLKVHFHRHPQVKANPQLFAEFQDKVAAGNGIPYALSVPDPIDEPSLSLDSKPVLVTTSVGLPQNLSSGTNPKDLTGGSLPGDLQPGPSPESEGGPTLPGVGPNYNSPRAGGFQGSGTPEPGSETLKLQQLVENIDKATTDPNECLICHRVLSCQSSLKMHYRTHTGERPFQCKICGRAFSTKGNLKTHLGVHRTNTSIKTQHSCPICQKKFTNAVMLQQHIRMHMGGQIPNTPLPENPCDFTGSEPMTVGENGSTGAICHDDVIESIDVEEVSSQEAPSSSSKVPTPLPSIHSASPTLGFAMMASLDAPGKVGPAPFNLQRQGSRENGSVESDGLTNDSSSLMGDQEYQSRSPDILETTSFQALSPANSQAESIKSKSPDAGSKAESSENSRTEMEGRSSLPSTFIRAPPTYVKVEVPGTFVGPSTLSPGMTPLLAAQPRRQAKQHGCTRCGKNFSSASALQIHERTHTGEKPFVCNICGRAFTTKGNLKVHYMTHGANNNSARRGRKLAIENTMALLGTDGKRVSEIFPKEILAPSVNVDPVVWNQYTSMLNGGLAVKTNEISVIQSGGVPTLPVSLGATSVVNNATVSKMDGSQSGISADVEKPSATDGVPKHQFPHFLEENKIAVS
Setting: 8-mer, flanks averaged, mean of replicates
`GGCTGTAC` gave an E-score of -0.261.
With `TCACTAAA` the E-score was 0.157.
`CGGCGAAA` has an E-score of -0.0257.
With `CCCTGCCG` the E-score was -0.33.
With `CAACGAGC` the E-score was -0.295.
`AAATTTAC` has an E-score of 0.28.
`GAGACCAA` has an E-score of -0.02.
For `ATCTAACG`, the E-score was 0.101.
With `AGGCCAGG` the E-score was -0.231.
For `CGGGGCCC`, the E-score was -0.361.
`CGCAACAC` gave an E-score of -0.0292.
For `ACACGATC`, the E-score was -0.0259.
`CCACTACG` has an E-score of -0.204.
`ACGCGACG` gave an E-score of -0.209.
`GCGAAGTA` gave an E-score of 0.0328.
`GCTATGTA` has an E-score of 0.201.
`CATTCTGA` gave an E-score of 0.117.
`AGAAGGCA` gave an E-score of -0.0565.
`CGTTAAAC` has an E-score of 0.167.
`ATACTCAA` has an E-score of 0.207.
`ACCAAAGG` gave an E-score of -0.0366.
The E-score of `CTGACTTC` is reported as -0.132.
With `GTGTTAAC` the E-score was 0.216.
`GGTCCACC` has an E-score of -0.337.
The E-score of `GCCGAGTA` is reported as -0.3.

Set 2 — technique: protein-binding microarray; form: double-stranded DNA, one strand shown; medium: in vitro; tested at: 2540 nM top; setting: 60-bp whole probe; together with: salmon DNA 0.4 mg/ml; relative to: random background probes; direction: higher = stronger binding; all sequences stand within: GCCTAGCAC … GTCTTGATTCGCTTGACGCTGCTG
Target: Interferon regulatory factor 3, full length, phosphomimetic (IRF3, Homo sapiens, UniProt Q14653, residues 1-427, S386D/S396D/S398D/S402D/T404D/S405D)
Target sequence (chain): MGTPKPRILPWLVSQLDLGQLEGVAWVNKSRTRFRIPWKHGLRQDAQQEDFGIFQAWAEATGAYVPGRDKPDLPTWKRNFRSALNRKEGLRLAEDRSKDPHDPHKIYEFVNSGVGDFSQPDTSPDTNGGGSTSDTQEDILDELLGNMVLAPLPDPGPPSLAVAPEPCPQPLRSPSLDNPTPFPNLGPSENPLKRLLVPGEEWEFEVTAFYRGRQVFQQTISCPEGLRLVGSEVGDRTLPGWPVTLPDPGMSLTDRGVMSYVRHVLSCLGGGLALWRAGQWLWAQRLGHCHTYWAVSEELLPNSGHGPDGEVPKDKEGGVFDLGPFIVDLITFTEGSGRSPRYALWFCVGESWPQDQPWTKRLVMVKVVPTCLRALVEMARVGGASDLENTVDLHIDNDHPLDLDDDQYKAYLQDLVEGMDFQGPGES
Under “fitted relative affinity”, `TTTGGTCTCCTTATCCTTTAGTGCTAG` is recorded as 3.15 z-score.
`GACGATTTCGGGACTTGAGACGTGCTA`: “fitted relative affinity” 1.55 z-score.
`GACGCACTGGGGACTGGAGACGTGCTA` — result for “fitted relative affinity”: -0.744 z-score.
For `TTAGGTTTCGTACTGCTTTAGTGCTAG`, “fitted relative affinity” read 3.72 z-score.
`GACGGTTCCGGTTTCGGGAGGTGCTAG` — result for “fitted relative affinity”: 6.13 z-score.
`GCCGGTTTCCTTTTCCTGACGTGCTAG` — result for “fitted relative affinity”: 11.1 z-score.
`TTAGGTATCGGGTATCGGTGAGTGCTA`: “fitted relative affinity” 1.49 z-score.
Under “fitted relative affinity”, `GAAGGTATCCTTATCCTGACGTGCTAG` is recorded as 5.03 z-score.
Under “fitted relative affinity”, `GACGGTCTCGGTACCGGGACGTGCTAG` is recorded as 0.976 z-score.
`TTAGATCACAGTCTCGATTAGTGCTAG`: “fitted relative affinity” 0.668 z-score.
Under “fitted relative affinity”, `CTTGCTTTGTGCCTAGCCTTGTGCTAG` is recorded as -0.383 z-score.
For `GACGATTTCTGTCTCGAGACGTGCTAG`, “fitted relative affinity” read 2.22 z-score.
`GACGGACTGGGGTTTAGGGACGTGCTA`: “fitted relative affinity” -1.02 z-score.
For `TATGTTCCCTATTTAAGACCGTGCTAG`, “fitted relative affinity” read 3.54 z-score.
`GACGATATCGGGTTTCGAGGCGTGCTA` — result for “fitted relative affinity”: 0.812 z-score.
`CACGGTTTCGACTATCGGGACGTGCTA`: “fitted relative affinity” 2.37 z-score.
`TCACGTCTGGGTGTTTTACTGTGCTAG`: “fitted relative affinity” -0.531 z-score.
`GACGGACTGGGGATTGGGGACGTGCTA` — result for “fitted relative affinity”: -0.64 z-score.

Set 3 — target: CCNA1, cyclin fold, Cln2 fusion (human); technique: yeast growth competition, sequencing; medium: yeast; setting: strong parent motif; relative to: not given; direction: higher = stronger binding
Parent: E2F1 docking peptide (human); PPVKRRLDFETDH
Under “normalised enrichment score”, `D8A` is recorded as 1.74.
`T11Q` — result for “normalised enrichment score”: 1.68.
For `L7W`, “normalised enrichment score” read 0.366.
For `P2V`, “normalised enrichment score” read 1.93.
`K4S`: “normalised enrichment score” 1.47.
For `T11A`, “normalised enrichment score” read 1.55.
For `L7A`, “normalised enrichment score” read 0.538.
`F9K`: “normalised enrichment score” 0.0105.
`T11E` — result for “normalised enrichment score”: 1.66.
For `L7C`, “normalised enrichment score” read 0.5.
For `E10S`, “normalised enrichment score” read 1.51.
For `F9D`, “normalised enrichment score” read -0.0971.
`T11K` — result for “normalised enrichment score”: 1.75.
`D12I` — result for “normalised enrichment score”: 1.96.
Under “normalised enrichment score”, `F9E` is recorded as 0.572.
`D8Y`: “normalised enrichment score” 2.06.
`V3M`: “normalised enrichment score” 0.744.

Set 4 — technique: DHFR PCA, deep sequencing; medium: yeast; together with: (+)-ABA 58 µM; relative to: wild-type fitted maximum; direction: higher = stronger binding
Target: ABI1, truncated, D143A, DHFR fusion (Arabidopsis thaliana)
Setting: methotrexate growth selection, single substitutions
Parent: PYL1, truncated, DHFR fusion (Arabidopsis thaliana); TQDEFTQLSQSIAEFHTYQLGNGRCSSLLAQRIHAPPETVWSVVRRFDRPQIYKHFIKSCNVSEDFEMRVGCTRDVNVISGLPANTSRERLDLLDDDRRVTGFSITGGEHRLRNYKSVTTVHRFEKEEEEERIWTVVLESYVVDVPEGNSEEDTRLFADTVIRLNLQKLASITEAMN
`H16Q`: “relative binding score” 22.2%.
`S26D`: “relative binding score” 38.3%.
Under “relative binding score”, `F124H` is recorded as 76.1%.
Under “relative binding score”, `S171N` is recorded as 82.7%.
For `P36C`, “relative binding score” read 75.3%.
`S150T`: “relative binding score” 85.6%.
For `M68D`, “relative binding score” read 54.2%.
`Q51S`: “relative binding score” 46.6%.
For `A175G`, “relative binding score” read 87.4%.
`T17M` — result for “relative binding score”: 68.9%.
`S104V` — result for “relative binding score”: 34.4%.
`S171T` — result for “relative binding score”: 84.4%.
`E139M`: “relative binding score” 69.6%.
For `L28C`, “relative binding score” read 72.7%.
`R88M` — result for “relative binding score”: 70.1%.
For `S59C`, “relative binding score” read 75.9%.
`E174Q` — result for “relative binding score”: 75.2%.
For `I162P`, “relative binding score” read 4.84%.
`L164N`: “relative binding score” 67.8%.
For `H55G`, “relative binding score” read 88.4%.
Under “relative binding score”, `K116N` is recorded as 52.9%.
`E4K` — result for “relative binding score”: 71.4%.
For `S140M`, “relative binding score” read -3.46%.
`V136W` — result for “relative binding score”: 76.8%.
`R24M`: “relative binding score” 86.3%.

Set 5 — technique: RNA Bind-n-Seq; form: RNA; medium: in vitro; tested at: 100 nM; relative to: input RNA pool; direction: higher = stronger binding
Target: RING finger protein unkempt homolog, zinc fingers 1-6, SBP tag (UNK, Homo sapiens, UniProt Q9C0B0, residues 30-357)
UniProt Q9C0B0, sequence (30-357, looked up): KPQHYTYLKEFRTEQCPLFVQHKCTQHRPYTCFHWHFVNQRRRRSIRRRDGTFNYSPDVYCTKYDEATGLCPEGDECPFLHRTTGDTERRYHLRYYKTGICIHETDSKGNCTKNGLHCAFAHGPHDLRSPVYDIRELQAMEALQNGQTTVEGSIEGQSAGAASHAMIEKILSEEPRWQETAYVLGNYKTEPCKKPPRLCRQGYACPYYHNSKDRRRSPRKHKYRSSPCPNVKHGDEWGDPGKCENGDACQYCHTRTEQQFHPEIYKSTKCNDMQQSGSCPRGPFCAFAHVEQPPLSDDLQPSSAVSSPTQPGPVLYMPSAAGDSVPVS
Setting: RNA with constant flanks, vertebrate orthologous sites, ends assumed
All sequences stand within: GGGAGUUCUACAGUCCGACGAUC … CAACAGAGGAUUGAGCAUCA
The bound/input enrichment of `AAAUUUAUUUCAUGCCCUGGACUCCAUAUCGUACCGAUACUUUAAUAGAAUAUGCUUCUUUAGAAGAUUUCCAAAAUAGUCGCCAAACAACAACAUAUAAACUUCCAAAUCGAGUAGAUG` is reported as 2.38 ratio.
The bound/input enrichment of `AAAACCCCGAUUUUAGAUGUGAUAUUUAGGCUUUCAUUCCAGUUUGUUUUGUUUUUUGUUUAGAUACCAAUCUUUUAAAUUCUUGCAUUUUAGUAAGAAAGCUAUCUUUUUAUGGAUGUU` is reported as 0.961 ratio.
`AGAAAAUUUUAACCAAGAAUCUGAAGGUAGAAAUACAGGACCGUGGUUAUCUUCCUCACUUAGAAAUAGAUGCACACCUUUGUUCUCCAGAAGGAGACGAGAGGGACGAGAUGAAUCUUC` has a bound/input enrichment of 0.526 ratio.
The bound/input enrichment of `AUGCAUUUUGUGACUUGGAUGUGGUCUGCACAGGAAGCUGCUGGCCCCUGCGCAACAACACAUAAAAAGUUUGUCUUUUUUUAAGAUGUUAAAACUGAAUUGAAUUUACUAAAAAUGUAA` is reported as 0.141 ratio.
The bound/input enrichment of `AGCAGUAGCAUUGGUUGUUUUUUUGUUGUUUGUUUUUCUUUUGGUAAAUGUAAAAAUAAUUAGAUCCAGACUUUGUUUCCUUAUUCAAUUUUAAAAAUAAAAAAUACCUCAGUGCUGUUU` is reported as 0.841 ratio.
For `GGGACAGUCUAGUUAAGGUAGUAACCAUUAAUUUAUUUUAAUAAAUGAUGAAAAUCAUAUUAGUACUAAGUUAGGUUGGAGAAUUUAAAUAUCUUUUAGAUGAUUCUAAAAAUAAAUCCU`, the bound/input enrichment was 0.508 ratio.
The bound/input enrichment of `CUCGGGGAUACCGUGGGGCGCCGCUGACUGCUUCGCGUCGUUUGAUUUGUGACCUUGAGAUAAUAGAUAGGCUUGUGGUUUGUUUGUUUUUUUAAUUUAAAGAUAUUAAGACUUAAUUCA` is reported as 0.511 ratio.
For `AUGUCCUUGGUUACUGUGAUAUUUAAAAUAUCCACAGUACUCACUUUUUCCAAAUGAUUCUAGUAAUUGCCUAGAAAUAUCUUUCUCUUACCUGUUAUUUAUCAAUUUUUCCCAGUAUUU`, the bound/input enrichment was 1.02 ratio.
`CUGUUGUUAAGCACUGUGUUCCAGACCGUGUCUGACUUUAGUGUAACCUAGGAGAUUUUAUAGUUUUAUUUUAAUGAAAUCCUGCUUGACGCAGAGCAGCGGGGAGAGCAGUGUCUUCUA` has a bound/input enrichment of 2.03 ratio.
With `AAGAAAUGCUGGCUGCAAACCCUCAGGAUCGUCCAGAUGCUUUUGAACUAGAACUCAGAUUAGUACAAAUUGCAUUUAAAGAUAGCAGCUGGGAAACGUGACACAUACAUUGUUUGCAAA` the bound/input enrichment was 0.751 ratio.
For `AAUAGUUUUAAGCUUGUUUGCACAGCUUUUUUUUUCCAUUGGAAAUGGAAUCCAUUGCCUUAGGUCUUUUUAAUAGUGUAUUGUUAUUGUUGGGCUGGCUCUACGCUUGAAAACCAGUUU`, the bound/input enrichment was 1.95 ratio.

For quick reference, copied from above (set 4):
Under “relative binding score”, `F124H` is recorded as 76.1%.
Under “relative binding score”, `S171N` is recorded as 82.7%.
For `P36C`, “relative binding score” read 75.3%.
`S150T`: “relative binding score” 85.6%.
For `M68D`, “relative binding score” read 54.2%.
`Q51S`: “relative binding score” 46.6%.
For `A175G`, “relative binding score” read 87.4%.
`T17M` — result for “relative binding score”: 68.9%.
`S104V` — result for “relative binding score”: 34.4%.
`S171T` — result for “relative binding score”: 84.4%.
`E139M`: “relative binding score” 69.6%.
For `L28C`, “relative binding score” read 72.7%.
`R88M` — result for “relative binding score”: 70.1%.
